Measured values gathered from unrelated publications.
Protocols differ between the studies behind these lines. ± gives the spread as reported.
Chain of UniProt P11388 (whole entry, looked up): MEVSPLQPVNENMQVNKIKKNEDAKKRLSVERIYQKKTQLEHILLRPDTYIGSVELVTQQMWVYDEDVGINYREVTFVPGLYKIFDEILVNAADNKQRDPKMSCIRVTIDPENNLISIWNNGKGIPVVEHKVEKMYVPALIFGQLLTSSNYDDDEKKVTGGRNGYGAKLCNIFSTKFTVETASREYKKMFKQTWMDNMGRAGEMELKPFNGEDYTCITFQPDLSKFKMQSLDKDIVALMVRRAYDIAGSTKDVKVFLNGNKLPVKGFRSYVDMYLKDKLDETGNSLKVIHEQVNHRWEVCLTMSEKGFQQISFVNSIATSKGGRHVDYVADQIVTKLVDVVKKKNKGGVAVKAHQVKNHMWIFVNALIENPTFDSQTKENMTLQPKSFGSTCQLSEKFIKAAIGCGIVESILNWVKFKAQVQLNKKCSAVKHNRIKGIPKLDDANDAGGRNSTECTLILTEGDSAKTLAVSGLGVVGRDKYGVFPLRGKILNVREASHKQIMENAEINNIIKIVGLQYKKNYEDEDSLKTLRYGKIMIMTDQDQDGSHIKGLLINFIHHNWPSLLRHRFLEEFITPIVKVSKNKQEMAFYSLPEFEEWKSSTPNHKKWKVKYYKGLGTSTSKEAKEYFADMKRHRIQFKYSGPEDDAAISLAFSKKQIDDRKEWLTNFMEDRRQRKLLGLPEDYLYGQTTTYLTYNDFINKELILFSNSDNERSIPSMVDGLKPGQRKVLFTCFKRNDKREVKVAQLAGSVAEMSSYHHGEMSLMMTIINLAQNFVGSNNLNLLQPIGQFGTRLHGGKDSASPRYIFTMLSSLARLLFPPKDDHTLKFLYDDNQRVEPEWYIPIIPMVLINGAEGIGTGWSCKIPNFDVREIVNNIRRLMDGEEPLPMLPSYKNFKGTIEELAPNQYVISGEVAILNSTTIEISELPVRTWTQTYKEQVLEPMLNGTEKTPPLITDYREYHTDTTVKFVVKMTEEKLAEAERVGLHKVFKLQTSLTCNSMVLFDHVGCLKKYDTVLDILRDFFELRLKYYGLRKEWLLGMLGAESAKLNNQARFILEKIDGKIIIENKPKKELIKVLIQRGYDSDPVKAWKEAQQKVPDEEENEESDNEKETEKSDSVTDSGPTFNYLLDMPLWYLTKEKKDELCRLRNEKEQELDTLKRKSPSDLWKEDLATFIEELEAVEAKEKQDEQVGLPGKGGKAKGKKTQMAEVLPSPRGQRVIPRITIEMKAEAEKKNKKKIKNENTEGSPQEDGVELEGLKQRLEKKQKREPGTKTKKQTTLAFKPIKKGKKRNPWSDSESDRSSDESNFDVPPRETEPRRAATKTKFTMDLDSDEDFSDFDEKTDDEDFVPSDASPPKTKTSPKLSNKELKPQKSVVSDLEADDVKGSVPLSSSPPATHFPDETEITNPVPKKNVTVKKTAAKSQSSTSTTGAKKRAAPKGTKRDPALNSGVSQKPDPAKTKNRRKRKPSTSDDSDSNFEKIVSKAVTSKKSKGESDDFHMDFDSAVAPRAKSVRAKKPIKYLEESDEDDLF

COc1cc2c(c(OC)c1OC)-c1ccc(OC)c(=O)cc1[C@@H](NC(C)=O)CC2  activity call (antagonist, qPCR in vivo, item: Shp and Bsep mRNA; Oryzias latipes; dose not given): toxic
CNC(=O)c1ccccc1Nc1nc(Nc2ccc(N3CCNCC3)cc2)ncc1Cl  number of kinases displaced (competition with compound beads; A-375 cell lysate; binding reduced to 60% at 30 µM): 157
COC(=O)Nc1c(N)nc(-c2nn(Cc3ccccc3F)c3ncc(F)cc23)nc1N  seated HR maximum increase (healthy white men; dose not given, day 15, 360 h, LS mean difference, together with: sildenafil 100 mg; baseline: placebo): 1.08 bpm
COC(=O)N[C@H](C(=O)N[C@@H](Cc1ccccc1)[C@@H](O)CN(Cc1ccc(-c2ccccn2)cc1)NC(=O)[C@@H](NC(=O)OC)C(C)(C)C)C(C)(C)C  remaining activity (vericiguat glucuronidation, inhibitor, item: metabolite M-1 formation; human kidney microsomes; 5.0 µM; baseline: no inhibitor): 94.8%
Fc1ccccc1Cc1nc(-c2nc(C(F)(F)F)n[nH]2)cn2ccnc12  choice reaction time (healthy volunteers; 0.3 mg, single ascending dose; baseline: placebo): -5.15 ms
CO/N=C1\C[C@]2(C[C@@H]3C[C@@H](C/C=C(\C)C[C@@H](C)/C=C/C=C4\CO[C@@H]5[C@H](O)C(C)=C[C@@H](C(=O)O3)[C@]45O)O2)O[C@H](/C(C)=C/C(C)C)[C@H]1C  activity call (antagonist, qPCR in vivo, item: Shp and Bsep mRNA; Oryzias latipes; dose not given): toxic
CC(C)C[C@H](NC(=O)OCc1ccccc1)C(=O)N[C@H](C=O)C[C@@H]1CCCNC1=O  EC90 (SARS-CoV-2; viral replication, RT-qPCR viral load; Caco-2; 72 h): 100 ± 20 nM
COc1cc([C@@H]2c3cc4c(cc3[C@@H](O[C@@H]3O[C@@H]5CO[C@@H](C)O[C@H]5[C@H](O)[C@H]3O)[C@H]3COC(=O)[C@H]23)OCO4)cc(OC)c1O  mean linear DNA (DNA topoisomerase 2-alpha (TOP2A, Homo sapiens, UniProt P11388); DNA cleavage; 15.6 µM): 10.8%
N#CCC1CCN(c2nc(Nc3ccc(N4CCC(O)CC4)cc3)c3c(=O)[nH]ncc3n2)CC1  osteopontin level difference (vs placebo, Olink multiplex; human, serum; 80 mg, day 29, unit not given; baseline: placebo): -1.37
Cc1cccc(Nc2ccccc2C(=O)O)c1C  remaining activity (vericiguat glucuronidation, inhibitor, item: metabolite M-1 formation; human liver microsomes; 10.0 µM; baseline: no inhibitor): 85.2%
CO/N=C(\C(=O)N[C@@H]1C(=O)N2C(C(=O)O)=C(COC(C)=O)CS[C@H]12)c1csc(N)n1  MIC (Salmonella enterica serovar Typhimurium; broth microdilution; clinical isolate RKI-No 437/14): > 16 µg/mL
hecogenin  remaining activity (vericiguat glucuronidation, inhibitor, item: metabolite M-1; human intestinal microsomes; 10.0 µM; baseline: control): 96.6%
CC1COc2ccccc2N1C(=O)C(Cl)Cl (stereo not shown)  scaled intrinsic clearance (carboxylesterase; male rhesus monkey liver cytosol; 5 µM, pH 7.4, without GSH): 42 mL/min/g liver
